Measurements from different studies.
Parts stem from different laboratories: compare values within a part only. Positions count from the first letter of the parent shown.

Set 1
Target: UDP-N-acetylglucosamine--peptide N-acetylglucosaminyltransferase 110 kDa subunit (OGT, Homo sapiens, UniProt O15294)
Sequence of UniProt O15294 (whole entry, looked up): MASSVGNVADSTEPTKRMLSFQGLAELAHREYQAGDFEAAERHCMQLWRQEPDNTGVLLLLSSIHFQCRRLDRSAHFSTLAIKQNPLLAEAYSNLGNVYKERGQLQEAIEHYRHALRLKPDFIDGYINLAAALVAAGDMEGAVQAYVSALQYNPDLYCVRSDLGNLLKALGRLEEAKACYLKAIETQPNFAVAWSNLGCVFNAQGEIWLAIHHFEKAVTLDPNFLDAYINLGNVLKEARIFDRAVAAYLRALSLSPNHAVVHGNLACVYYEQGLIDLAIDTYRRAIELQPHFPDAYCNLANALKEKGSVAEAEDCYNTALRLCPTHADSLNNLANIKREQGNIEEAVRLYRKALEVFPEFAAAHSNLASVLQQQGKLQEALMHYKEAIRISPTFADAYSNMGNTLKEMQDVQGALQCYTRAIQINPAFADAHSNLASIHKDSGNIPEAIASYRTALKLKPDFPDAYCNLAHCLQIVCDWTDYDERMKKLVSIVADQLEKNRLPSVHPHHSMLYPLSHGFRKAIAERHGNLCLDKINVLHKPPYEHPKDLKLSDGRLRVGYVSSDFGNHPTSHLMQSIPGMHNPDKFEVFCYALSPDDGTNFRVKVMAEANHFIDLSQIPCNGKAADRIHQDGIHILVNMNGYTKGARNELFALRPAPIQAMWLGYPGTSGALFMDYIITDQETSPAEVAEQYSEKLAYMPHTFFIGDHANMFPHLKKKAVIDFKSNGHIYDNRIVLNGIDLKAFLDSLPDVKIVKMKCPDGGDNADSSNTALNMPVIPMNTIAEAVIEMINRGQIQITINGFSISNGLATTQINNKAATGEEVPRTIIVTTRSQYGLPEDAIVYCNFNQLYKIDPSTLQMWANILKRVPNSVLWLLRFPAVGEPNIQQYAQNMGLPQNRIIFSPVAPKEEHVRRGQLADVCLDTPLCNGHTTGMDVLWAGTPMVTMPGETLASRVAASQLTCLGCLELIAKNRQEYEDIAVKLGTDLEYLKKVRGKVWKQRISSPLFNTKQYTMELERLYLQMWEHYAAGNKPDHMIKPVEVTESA
Effect on: binding
Technique: phage display NGS
Form: peptide
Concentration: concentration not given
Notes: normalized abundance
Baseline: input library
| Molecule | enrichment fold change |
| --- | --- |
| HIDKHFKHEQYQHDH | 8.89 |
| HDSNWWTDHTWKHH | 4.86 |
| HYRTDHFKPDHHIHT | 12.4 |
| RFFQPAYQIMPQSYR | 4.25 |

Set 2
Target: CCND2, cyclin fold, Cln2 fusion (human)
Technique: yeast growth competition, sequencing
Medium: yeast
Notes: weak parent motif
Baseline: not given
Reading: higher = stronger binding
Starting sequence: viral docking peptide; KGVKRKLFAEDSS; partner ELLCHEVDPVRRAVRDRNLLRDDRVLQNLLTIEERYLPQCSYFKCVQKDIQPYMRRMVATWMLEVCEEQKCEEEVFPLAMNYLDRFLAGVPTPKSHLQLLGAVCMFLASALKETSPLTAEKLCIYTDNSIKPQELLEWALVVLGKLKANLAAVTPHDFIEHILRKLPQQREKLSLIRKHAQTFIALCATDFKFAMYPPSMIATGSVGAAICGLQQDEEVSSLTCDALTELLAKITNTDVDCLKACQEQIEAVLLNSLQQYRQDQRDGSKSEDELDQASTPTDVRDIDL
| Change | normalised enrichment score |
| --- | --- |
| KGVKRKLFPEDSS [A9P] | -0.0715 |
| KGVKRKLSAEDSS [F8S] | -0.151 |
| KGVKRKLVAEDSS [F8V] | 0.134 |
| KGVKRKLFAEESS [D11E] | 0.503 |
| KGVKRKLKAEDSS [F8K] | 0.17 |
| KGVQRKLFAEDSS [K4Q] | 0.252 |

Set 3
Target: TAR DNA-binding protein 43, full length, His tag (TARDBP, Homo sapiens, UniProt Q13148, residues 1-414)
Technique: RNA Bind-n-Seq
Form: RNA
Medium: in vitro
Concentration: 20 nM
Notes: 6-mer, flanks averaged, single round
With: 150 mM KCl
Baseline: input library
Reading: higher = stronger binding
| Sequence | 6-mer enrichment (R) |
| --- | --- |
| UUCAGC | 0.613 |
| GUAGGG | 3.89 |
| CAAUGA | 0.664 |
| GCCUUC | 0.657 |
| AGGCUC | 0.754 |
| AUCAGA | 0.628 |
| CCGGCC | 0.83 |
| UGCAUU | 0.615 |

Mixed results
| Substance | target | assay | test system | conditions | how to read | measurement | result |
| --- | --- | --- | --- | --- | --- | --- | --- |
| PhoQ, residues 284 288 289 292 302 303 NLMGRA | PhoP, residues 12 14 15 18 19 GQAIL (Escherichia coli, UniProt P23836) | Sort-seq, refers to: YFP reporter | E. coli | PhoQ-PhoP variant library, with: 10 µM Mg2+ | baseline: high Mg2+ state, higher = stronger signaling | fold induction | 16.6 |

Excerpt of the above (set 2):
| Change | normalised enrichment score |
| --- | --- |
| KGVKRKLVAEDSS [F8V] | 0.134 |
